Assay results gathered from unrelated publications.
Each numbered part is a random draw from the data of one study; scales do not carry over between parts.

Set 1 — method: protein-binding microarray; form: double-stranded DNA, one strand shown; matrix: in vitro; tested at: 250 nM; notes: 60-bp whole probe; added: salmon DNA 0.4 mg/ml; reference: random background probes; direction: higher = stronger binding; all sequences stand within: GCCTAGCAC … GTCTTGATTCGCTTGACGCTGCTG
Target: Interferon regulatory factor 5, full length, phosphomimetic (IRF5, Homo sapiens, UniProt Q13568-2, residues 1-514, K96S/S451D/S453D/S456D/S462D)
Strand	log fluorescence
GAAGATTTCAGACTGGAGACGTGCTAG	0.0717 z-score
AGACTTCTCCATTTTTCTAGGTGCTAG	0.553 z-score
TTAGTTCTCAGACTGGATTAGTGCTAG	0.0565 z-score
GACGAGTCCAGTTTCGAGACGTGCTAG	5.28 z-score
GACGATATCAGCTTCGAGACGTGCTAG	0.719 z-score
GTCGATTTCGGGTTTCGAGACGTGCTA	6.55 z-score
GACGAACTGAGTTTCGAAACGTGCTAG	6.07 z-score
TCAAAAATCTCAATGGGACTGTGCTAG	-0.00137 z-score
GACGGTTTCGACTTTCAGGACGTGCTA	6.71 z-score
GACGAACTGGGTTATCGAGACGTGCTA	0.132 z-score
GACGGACTGCTTCTCATGACGTGCTAG	-0.474 z-score
TTAAGTATCCTTATCCTTTAGTGCTAG	0.826 z-score
GACGCTTTCGGACTGGGGACGTGCTAG	5.22 z-score
TTAGGTTTCGGGACTGCGTTAGTGCTA	6.21 z-score
TTCTCTTTCACTACTCCATTGTGCTAG	5.89 z-score
TTAGATATCAGGACTGGATTAGTGCTA	0.407 z-score
TCAAGAATAATTTTTTAGACTGTGCTA	0.552 z-score
GACGATTTCGGGACTGGAGAGGTGCTA	1.65 z-score
TCATTTTTGGAATGTCTTACTGTGCTA	0.881 z-score
GACGAACTGAGTATCCAGACGTGCTAG	-0.403 z-score
TGTACTCTCTACATGGGCTTGTGCTAG	-0.105 z-score
TTTGGTCTCCTACTGCTTTAGTGCTAG	-0.0332 z-score
TTAGAACTGAGACTGGATTTGTGCTAG	-0.0747 z-score
TGAGGTATCCTACTGCTTTAGTGCTAG	-0.129 z-score
TCACTTCTGGGCTGTTTGACTGTGCTA	0.104 z-score

Set 2 — method: universal PBM; form: double-stranded DNA, one strand shown; matrix: in vitro; tested at: 600 nM; direction: higher = stronger binding
Target: Sal-like protein 4, full length isoform A (SALL4, Homo sapiens, UniProt Q9UJQ4, residues 1-1053)
Sequence of UniProt Q9UJQ4 (whole entry, looked up): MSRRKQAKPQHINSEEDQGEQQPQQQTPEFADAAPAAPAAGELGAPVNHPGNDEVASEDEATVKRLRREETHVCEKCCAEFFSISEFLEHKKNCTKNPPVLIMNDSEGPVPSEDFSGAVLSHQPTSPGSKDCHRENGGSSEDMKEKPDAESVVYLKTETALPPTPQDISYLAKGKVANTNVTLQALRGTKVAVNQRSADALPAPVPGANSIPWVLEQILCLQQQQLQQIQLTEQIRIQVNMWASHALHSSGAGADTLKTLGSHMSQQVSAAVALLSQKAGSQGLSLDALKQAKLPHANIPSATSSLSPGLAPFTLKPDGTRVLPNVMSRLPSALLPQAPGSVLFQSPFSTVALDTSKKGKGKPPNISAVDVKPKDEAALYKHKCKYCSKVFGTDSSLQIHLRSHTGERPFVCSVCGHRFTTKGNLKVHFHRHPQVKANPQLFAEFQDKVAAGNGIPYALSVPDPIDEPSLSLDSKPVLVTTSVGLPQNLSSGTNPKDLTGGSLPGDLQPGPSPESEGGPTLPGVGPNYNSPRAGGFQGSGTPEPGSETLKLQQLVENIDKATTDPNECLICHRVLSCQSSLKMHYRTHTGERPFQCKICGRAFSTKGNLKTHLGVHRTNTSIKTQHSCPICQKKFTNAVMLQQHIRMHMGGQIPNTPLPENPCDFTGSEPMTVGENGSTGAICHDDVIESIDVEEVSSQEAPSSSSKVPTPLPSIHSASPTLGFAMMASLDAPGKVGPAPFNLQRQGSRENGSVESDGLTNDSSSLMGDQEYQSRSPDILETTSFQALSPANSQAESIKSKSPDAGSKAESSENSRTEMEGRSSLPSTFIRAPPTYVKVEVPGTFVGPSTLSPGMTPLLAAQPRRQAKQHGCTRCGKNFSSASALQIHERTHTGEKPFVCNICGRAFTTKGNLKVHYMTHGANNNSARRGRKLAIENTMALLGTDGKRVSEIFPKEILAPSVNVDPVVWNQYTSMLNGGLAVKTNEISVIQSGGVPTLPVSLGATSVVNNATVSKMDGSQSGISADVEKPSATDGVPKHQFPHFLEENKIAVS
Notes: 8-mer, flanks averaged, mean of replicates
Strand	E-score
GGTTTAGA	0.0753
CAACGCAA	0.101
ATGGCTCG	-0.138
AATTGTCT	0.185
GACGTATA	0.144
ACGCCTGA	-0.0448
CTCAATGC	0.0745
CGTCGGCA	-0.243
CAGTAACG	0.0477
GACGTCTC	-0.118
AAGGGGAC	-0.211
AATAAGGG	0.152
CACAAAGG	-0.029
CCCGCTAG	-0.184
CTGTGGAA	-0.0651
CGCAAATC	-0.00331
ACCGCTCT	-0.157
GACGATCC	-0.14
ATAGCCCC	-0.275
ACTCAGGG	-0.233

Set 3 — method: RNA Bind-n-Seq; form: RNA; matrix: in vitro; tested at: 365 nM; reference: no-protein control; direction: higher = stronger binding
Target: RNA binding protein fox-1 homolog 2, RRM domain, GST-SBP tag (RBFOX2, Homo sapiens, UniProt O43251-10, residues 100-194)
Notes: natural RNA segment, single round, ends assumed
Construct (chain): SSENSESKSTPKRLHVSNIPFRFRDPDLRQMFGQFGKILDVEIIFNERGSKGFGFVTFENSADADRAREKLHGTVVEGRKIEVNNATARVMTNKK
Strand	RBNS enrichment (R)
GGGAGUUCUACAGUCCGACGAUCAGCACCAUAACCAAGAAAUACUAAUGUAAAGAUUGUUUCUUGUUUCAGGAAUGGUUAAUUCUUCAACGUUGGUAUGAUAAUGAUAACUUGUUUUGACUUGAAUAAAGUACUGGAAUUCUCGGGUGCCAA	0.287
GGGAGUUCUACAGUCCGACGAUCCCCCACCCCGCAAUUCCGCCAAAGCCAAGAAAUAGCCCCCGCACACCACCCUGUGCCCCAGAUGAUGGAUUGAUUGUACAGAAAUCAUGCUGCCAUGCUGGGGGGGGGUCUGGAAUUCUCGGGUGCCAA	0.755
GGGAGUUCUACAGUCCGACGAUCUCACCCUUCCUCUUCCUGUCACAGUGACAGGUCUUCACUAGCUGGCUUCUUUCUGUACUUGCUGACUUCUGUCAUAUUUCUUUCCAGAUGUGUUUACAGGUCCCUGUAAGUGGAAUUCUCGGGUGCCAA	0.414
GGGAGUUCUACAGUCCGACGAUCUGGCACGCAGCCUCCGUCUCCGGGGCUCUCCGGGACUAGCUGCAAAACUUAUGCUCUAAACAUUUCUAGUUCCCCCAAACAACCUAGAGGCCUUGGGACUUCACAUCCCCUGGAAUUCUCGGGUGCCAA	0.157
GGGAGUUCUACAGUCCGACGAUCUCUGUCCAGAGGCUUUAAAACUGGUGCAAUUACAGCAAAAAGGGAUUCUGUAGCUUUAACUUGUAAACCACAUCUUUUUUGCACUUUUUUUAUAAGCAAAAACGUGCCGUUGGAAUUCUCGGGUGCCAA	0.377
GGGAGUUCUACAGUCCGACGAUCCUUGUAAAUAUUGAUAGCACUGGCUUCCUCCAAAGUCCCAAUACUCUAGCCCCGCUCUCUUCCCCUCUUUCUGUCCCCCAUUUUCCAGGGGGUAUAUGGUCAGGGCUCCCUGGAAUUCUCGGGUGCCAA	0.778
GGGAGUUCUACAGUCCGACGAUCUUGUGGGCAGAGCUAAUCCAAGUUACUGUUCUCUGUUCAAAUGAAGCAGCUUCAGGAGAAAAAGAGCAAUUACUUUUGAAUUCUCCAAUAAAUCUGGACAAUGCCGUUAGUGGAAUUCUCGGGUGCCAA	0.265
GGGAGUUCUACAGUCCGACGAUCCGAAUGUAACCUGCGUGGUGAUGUGACAACUGUUUCCUCCCUGACCCCAGAGGAUCUGGCUCUAGGUUGGGAUCAAUCCUGAAUUUCGUUAUGUGUUAAUUUACUUUUAUUGGAAUUCUCGGGUGCCAA	0.484
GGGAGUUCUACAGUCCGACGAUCGUGCUGUGUCAUGAGGCAAAGCCCAGCCUGGCCCCACCCACAGCUCUGGCUUUGACUGACUCCUGGGGGAAGCUGCUGUGGCCCAGCUCCUCCCUCCUCAUCUUGCCGUCUGGAAUUCUCGGGUGCCAA	0.265
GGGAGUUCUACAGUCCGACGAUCCAUGAAUUAGAUUUUACUGCUUGUCAUUUUGUUAUUUUCUUACCAAGUGCAUUGAUAUGUGAAGUAGAAUGAAUUGCAGAGGAAAGUUUUAUGAAUAUGGUGAUGAGUUAUGGAAUUCUCGGGUGCCAA	0.319
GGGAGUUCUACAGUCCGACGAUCUCAUUCUCAGAAUUCGGUGUGCUGCCAACUUGAUGUUCCACCUGCCACAAACCACCAGGACUGAAAGAAGAAAACAGUACAGAAGGCAAAGUUUACAGAUGUUUUUAAUUUGGAAUUCUCGGGUGCCAA	0.375
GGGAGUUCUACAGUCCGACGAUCUCCCAGCUCGCCCAUGUAUGUCGACUGAUACCGCUGCUACAUCAGACUCUAGAAAAAAGGGCUGAGGGGAAGCAAGACGUAAAGAGUUUUCAUCCUGUAUCACAGUGUUUUGGAAUUCUCGGGUGCCAA	0.657

Set 4 — method: protein binding microarray; form: double-stranded DNA, one strand shown; matrix: in vitro; tested at: not given; reference: not given; direction: higher = stronger binding
Target: Histone acetyltransferase KAT6A, winged helix 1, GST fusion (KAT6A, Homo sapiens, UniProt Q92794, residues 1-85)
Notes: 8-mer, flanks averaged, mean of 2 arrays, mostly near background
Residues (chain): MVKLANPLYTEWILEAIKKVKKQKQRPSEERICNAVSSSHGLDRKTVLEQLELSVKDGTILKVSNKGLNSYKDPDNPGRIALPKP
Strand	E-score
GTAGAAAC	-0.0046
AAGCCGTC	0.416
AGTAGGGG	-0.0606
ACATCCAA	-0.142
TGTCGGAA	0.0816
AATGAACA	-0.215
CACGATAA	-0.167
AAGAATGA	-0.238
ACCACACC	-0.00355
ACCACCGG	0.257
ACATGCAG	-0.0642
CTATGGAG	-0.108
AGATTAGA	-0.194
ACCCAACC	-0.099
AGTGAACC	-0.0316
AACATTGA	-0.122
ATATCAGG	-0.13
CGGTAGAC	0.217
CCGCAGAC	0.243
TAGTATGA	-0.0897

Excerpt of the above (set 1):
Strand	log fluorescence
TCACTTCTGGGCTGTTTGACTGTGCTA	0.104 z-score
GACGATTTCGGGACTGGAGAGGTGCTA	1.65 z-score
TCATTTTTGGAATGTCTTACTGTGCTA	0.881 z-score
TTAAGTATCCTTATCCTTTAGTGCTAG	0.826 z-score
GACGAACTGAGTATCCAGACGTGCTAG	-0.403 z-score
GTCGATTTCGGGTTTCGAGACGTGCTA	6.55 z-score
TCAAGAATAATTTTTTAGACTGTGCTA	0.552 z-score
TGAGGTATCCTACTGCTTTAGTGCTAG	-0.129 z-score
TCAAAAATCTCAATGGGACTGTGCTAG	-0.00137 z-score
TTAGATATCAGGACTGGATTAGTGCTA	0.407 z-score
GACGAGTCCAGTTTCGAGACGTGCTAG	5.28 z-score
